Assay results gathered from unrelated publications.
A part holds a random share of what one study measured.
Chain of UniProt P29376 (whole entry, looked up): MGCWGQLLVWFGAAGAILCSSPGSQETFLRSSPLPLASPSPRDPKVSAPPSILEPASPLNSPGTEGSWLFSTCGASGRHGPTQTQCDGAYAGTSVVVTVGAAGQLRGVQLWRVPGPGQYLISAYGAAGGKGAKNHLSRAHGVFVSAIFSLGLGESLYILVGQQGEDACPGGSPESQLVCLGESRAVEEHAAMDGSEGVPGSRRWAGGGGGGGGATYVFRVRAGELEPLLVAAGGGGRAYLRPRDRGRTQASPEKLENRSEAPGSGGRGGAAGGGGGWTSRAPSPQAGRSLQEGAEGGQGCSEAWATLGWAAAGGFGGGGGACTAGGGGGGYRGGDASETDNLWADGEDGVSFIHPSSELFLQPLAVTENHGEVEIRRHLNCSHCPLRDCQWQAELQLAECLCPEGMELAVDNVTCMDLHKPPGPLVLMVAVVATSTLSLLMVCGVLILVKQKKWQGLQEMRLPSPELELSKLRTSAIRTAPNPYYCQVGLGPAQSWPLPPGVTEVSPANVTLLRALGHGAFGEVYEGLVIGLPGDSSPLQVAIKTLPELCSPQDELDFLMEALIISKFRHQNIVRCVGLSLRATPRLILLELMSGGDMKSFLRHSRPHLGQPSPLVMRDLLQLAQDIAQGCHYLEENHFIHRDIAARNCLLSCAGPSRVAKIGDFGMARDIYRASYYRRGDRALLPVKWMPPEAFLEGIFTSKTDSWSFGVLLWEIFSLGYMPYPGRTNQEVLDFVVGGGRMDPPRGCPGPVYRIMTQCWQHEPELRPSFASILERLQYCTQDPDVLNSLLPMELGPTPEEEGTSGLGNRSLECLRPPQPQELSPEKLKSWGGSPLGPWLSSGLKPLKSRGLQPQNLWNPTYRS
Chain of UniProt P17948 (whole entry, looked up): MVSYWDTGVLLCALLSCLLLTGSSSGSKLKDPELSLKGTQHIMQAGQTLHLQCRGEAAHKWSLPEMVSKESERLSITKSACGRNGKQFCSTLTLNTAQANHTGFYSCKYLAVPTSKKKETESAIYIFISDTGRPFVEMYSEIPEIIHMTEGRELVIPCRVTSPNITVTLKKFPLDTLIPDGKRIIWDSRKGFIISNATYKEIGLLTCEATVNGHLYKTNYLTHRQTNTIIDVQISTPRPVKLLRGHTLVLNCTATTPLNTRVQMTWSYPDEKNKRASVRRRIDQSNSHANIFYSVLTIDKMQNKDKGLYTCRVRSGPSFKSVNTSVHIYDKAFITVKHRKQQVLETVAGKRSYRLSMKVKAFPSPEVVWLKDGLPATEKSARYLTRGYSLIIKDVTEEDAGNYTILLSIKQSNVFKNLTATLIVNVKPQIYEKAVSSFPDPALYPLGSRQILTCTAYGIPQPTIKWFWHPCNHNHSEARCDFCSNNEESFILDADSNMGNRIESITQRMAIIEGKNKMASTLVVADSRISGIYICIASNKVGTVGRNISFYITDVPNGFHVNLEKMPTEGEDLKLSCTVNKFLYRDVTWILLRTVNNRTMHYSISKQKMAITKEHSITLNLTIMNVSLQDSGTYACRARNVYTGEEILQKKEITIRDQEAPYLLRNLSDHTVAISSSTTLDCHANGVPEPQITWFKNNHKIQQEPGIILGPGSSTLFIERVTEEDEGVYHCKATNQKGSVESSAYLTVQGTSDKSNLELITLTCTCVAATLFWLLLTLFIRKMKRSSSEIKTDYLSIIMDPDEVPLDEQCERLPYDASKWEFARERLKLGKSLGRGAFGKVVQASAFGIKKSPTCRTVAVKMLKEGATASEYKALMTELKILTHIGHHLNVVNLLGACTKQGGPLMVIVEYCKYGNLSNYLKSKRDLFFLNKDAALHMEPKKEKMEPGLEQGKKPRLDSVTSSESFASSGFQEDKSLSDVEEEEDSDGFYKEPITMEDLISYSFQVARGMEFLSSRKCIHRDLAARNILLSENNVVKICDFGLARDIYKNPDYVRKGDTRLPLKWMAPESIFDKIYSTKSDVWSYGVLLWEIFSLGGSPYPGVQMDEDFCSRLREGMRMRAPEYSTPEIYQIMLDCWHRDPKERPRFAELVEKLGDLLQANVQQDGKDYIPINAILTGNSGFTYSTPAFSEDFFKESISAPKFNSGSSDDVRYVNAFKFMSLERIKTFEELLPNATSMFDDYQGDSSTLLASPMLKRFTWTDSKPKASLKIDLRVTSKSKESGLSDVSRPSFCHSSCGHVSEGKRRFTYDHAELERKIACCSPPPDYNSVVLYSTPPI
Chain of UniProt P49760 (whole entry, looked up): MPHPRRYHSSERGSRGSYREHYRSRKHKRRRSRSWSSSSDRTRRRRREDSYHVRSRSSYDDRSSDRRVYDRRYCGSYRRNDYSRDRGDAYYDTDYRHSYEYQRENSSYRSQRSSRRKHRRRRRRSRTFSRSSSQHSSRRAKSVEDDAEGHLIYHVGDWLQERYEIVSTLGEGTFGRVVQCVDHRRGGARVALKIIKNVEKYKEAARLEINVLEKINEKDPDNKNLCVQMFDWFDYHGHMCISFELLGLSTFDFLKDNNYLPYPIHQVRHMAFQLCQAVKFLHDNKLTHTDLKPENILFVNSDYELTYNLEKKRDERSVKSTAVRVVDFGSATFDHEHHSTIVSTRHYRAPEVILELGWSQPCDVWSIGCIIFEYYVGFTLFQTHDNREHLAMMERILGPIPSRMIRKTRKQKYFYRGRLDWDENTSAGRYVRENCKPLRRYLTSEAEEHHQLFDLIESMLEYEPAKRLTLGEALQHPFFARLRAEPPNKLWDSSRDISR
Chain of UniProt P51812 (whole entry, looked up): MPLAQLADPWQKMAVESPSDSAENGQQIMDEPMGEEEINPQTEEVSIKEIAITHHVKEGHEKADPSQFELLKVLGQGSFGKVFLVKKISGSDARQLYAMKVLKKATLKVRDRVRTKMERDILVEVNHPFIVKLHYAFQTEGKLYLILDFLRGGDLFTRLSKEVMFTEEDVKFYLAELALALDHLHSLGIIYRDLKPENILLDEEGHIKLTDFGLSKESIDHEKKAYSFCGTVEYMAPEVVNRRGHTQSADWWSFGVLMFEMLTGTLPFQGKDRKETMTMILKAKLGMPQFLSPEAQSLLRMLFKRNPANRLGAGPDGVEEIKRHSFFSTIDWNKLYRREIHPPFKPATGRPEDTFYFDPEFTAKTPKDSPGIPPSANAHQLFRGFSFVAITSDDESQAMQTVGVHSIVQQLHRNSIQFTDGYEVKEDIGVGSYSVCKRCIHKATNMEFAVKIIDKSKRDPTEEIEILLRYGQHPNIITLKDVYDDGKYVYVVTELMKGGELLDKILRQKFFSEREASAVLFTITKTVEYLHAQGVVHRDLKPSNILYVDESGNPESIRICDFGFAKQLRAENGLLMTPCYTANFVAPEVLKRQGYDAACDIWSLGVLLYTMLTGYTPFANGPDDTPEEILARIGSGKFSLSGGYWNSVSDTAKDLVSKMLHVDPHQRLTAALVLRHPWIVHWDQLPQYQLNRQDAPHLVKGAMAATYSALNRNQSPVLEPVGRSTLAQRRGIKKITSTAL
Chain of UniProt O43293 (whole entry, looked up): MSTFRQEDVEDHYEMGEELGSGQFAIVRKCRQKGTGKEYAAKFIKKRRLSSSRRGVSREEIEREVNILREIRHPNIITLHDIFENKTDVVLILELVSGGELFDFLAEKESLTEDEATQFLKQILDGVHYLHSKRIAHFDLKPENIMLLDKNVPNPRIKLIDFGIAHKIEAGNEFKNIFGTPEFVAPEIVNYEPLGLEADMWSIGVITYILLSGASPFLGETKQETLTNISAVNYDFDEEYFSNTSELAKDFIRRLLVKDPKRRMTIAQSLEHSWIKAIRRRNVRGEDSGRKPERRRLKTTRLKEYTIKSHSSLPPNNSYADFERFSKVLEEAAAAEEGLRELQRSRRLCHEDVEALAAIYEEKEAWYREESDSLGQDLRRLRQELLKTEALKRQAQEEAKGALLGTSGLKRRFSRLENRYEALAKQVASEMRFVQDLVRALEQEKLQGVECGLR
Chain of UniProt Q9Y616 (whole entry, looked up): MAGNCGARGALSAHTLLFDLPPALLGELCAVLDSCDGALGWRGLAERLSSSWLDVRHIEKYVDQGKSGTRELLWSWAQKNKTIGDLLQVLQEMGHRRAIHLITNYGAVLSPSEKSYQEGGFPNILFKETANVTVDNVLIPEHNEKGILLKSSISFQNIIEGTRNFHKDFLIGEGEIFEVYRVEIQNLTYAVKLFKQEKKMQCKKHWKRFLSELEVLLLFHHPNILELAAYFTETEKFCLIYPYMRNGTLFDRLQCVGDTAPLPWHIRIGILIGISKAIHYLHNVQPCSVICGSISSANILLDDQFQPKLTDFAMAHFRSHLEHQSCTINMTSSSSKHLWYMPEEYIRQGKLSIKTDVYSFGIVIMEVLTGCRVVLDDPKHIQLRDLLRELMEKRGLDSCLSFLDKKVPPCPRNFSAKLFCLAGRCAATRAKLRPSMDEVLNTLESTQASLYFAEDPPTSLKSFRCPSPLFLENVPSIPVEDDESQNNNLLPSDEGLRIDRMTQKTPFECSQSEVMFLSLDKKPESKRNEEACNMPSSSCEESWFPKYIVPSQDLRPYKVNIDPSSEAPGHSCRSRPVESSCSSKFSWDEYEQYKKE
Chain of UniProt Q8WU08 (whole entry, looked up): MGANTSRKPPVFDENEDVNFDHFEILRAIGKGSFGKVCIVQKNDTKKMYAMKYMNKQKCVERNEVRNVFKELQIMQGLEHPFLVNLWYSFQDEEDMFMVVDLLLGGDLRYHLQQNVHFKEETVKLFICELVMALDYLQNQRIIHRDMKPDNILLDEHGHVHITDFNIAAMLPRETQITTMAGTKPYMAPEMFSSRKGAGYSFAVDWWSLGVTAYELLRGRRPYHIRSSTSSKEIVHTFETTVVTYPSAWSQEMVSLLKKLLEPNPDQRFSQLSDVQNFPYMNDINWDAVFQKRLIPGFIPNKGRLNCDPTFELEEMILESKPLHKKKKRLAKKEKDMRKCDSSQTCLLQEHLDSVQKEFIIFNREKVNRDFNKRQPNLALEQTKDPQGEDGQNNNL

Block 1 — read-out: enzyme activity; action: inhibitor; concentration: 0.5 µM; relative to: control
Target: Serine/threonine-protein kinase NLK (NLK, Homo sapiens, UniProt Q9UBE8)
Target sequence (Q9UBE8 1-527): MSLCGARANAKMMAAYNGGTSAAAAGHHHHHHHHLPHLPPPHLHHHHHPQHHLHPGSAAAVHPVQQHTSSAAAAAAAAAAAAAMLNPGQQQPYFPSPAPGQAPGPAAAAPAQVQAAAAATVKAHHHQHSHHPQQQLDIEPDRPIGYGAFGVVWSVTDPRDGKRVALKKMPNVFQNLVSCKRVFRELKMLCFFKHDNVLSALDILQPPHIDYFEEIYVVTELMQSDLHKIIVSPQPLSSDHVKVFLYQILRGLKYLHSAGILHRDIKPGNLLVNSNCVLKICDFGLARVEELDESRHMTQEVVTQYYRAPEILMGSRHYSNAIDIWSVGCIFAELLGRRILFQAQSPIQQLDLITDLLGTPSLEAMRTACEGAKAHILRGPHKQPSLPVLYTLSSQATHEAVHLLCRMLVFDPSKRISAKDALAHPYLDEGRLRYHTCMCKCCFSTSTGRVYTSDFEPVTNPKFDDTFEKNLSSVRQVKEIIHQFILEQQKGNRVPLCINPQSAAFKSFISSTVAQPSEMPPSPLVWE
SMILES	remaining activity [%]
c1ccc(-c2n[nH]c3c2oc2ccccc23)cc1	92.3
Cc1cc(Nc2cc(N3CCN(C)CC3)nc(Sc3ccc(NC(=O)C4CC4)cc3)n2)[nH]n1	103
CN1CCN(c2ccc3nc(-c4c(N)c5c(F)cccc5[nH]c4=O)[nH]c3c2)CC1	110
c1ccc2c(-c3ccncc3)c[nH]c2c1	95.1
COc1cccc(-c2cc(=O)c3ccccc3o2)c1N	96.4
O=C1NC(=O)c2c1c1c3ccccc3[nH]c1n1cncc21	87.9
Oc1cccc(-c2nc(N3CCOCC3)c3oc4ncccc4c3n2)c1	97.4
O=C1Nc2ccccc2/C1=C\c1c(Cl)[nH]c2ccccc12	107
O=c1cc(N2CCOCC2)oc2c(-c3ccccc3)cccc12	99.8
O=Nc1c(-c2c(O)[nH]c3cc(Br)ccc23)[nH]c2ccccc12	101
N#Cc1cnc2cnc(NCc3cccnc3)cc2c1Nc1ccc(F)c(Cl)c1	88
Cc1ccc(S(=O)(=O)/C=C/C#N)cc1	99.2
CCCNC(=O)Nc1ccc(Oc2ncnc3cc(OC)c(OC)cc23)cc1Cl	90.7
O=C(c1cc2cc(O)ccc2[nH]1)c1cc2cc(O)ccc2[nH]1	83.2
O=C1NC(=O)c2c1c1c3ccccc3[nH]c1c1[nH]c3cc(Br)ccc3c21	81.7
O=C1Cc2c([nH]c3ccc(Br)cc23)-c2ccccc2N1	98.7
CN(C)S(=O)(=O)c1ccc2c(c1)/C(=C/c1cc3c([nH]1)CCCC3)C(=O)N2	99.7
COc1ccc2c(c1)c(C1=C(c3c[nH]c4ccccc34)C(=O)NC1=O)cn2CCCN(C)C	87.9

Block 2 — cell line: mouse MPNST tumor cells; method: high-content immunofluorescence imaging; measured: nuclear SOX9; concentration: 10 µM; time: 12 h; setting: mean of 2 replicates; relative to: DMSO control; direction: higher = more nuclear SOX9
Compound	nuclear SOX9 intensity
COc1ncnc(NS(=O)(=O)c2ccc(N)cc2)c1OC	110 % of DMSO
O=C(O)CCC(=O)Nc1ccc(S(=O)(=O)Nc2nccs2)cc1	67.5 % of DMSO
COC1CCN(c2cccc(-c3cc(NC(C)=O)nc(-n4nc(C)cc4C)n3)n2)CC1	171 % of DMSO
N#Cc1ccc(COC[C@H]2O[C@@H](n3c(NCc4ccc(Cl)c(Cl)c4)nc4c(N)ncnc43)[C@H](O)[C@@H]2O)cc1	98.8 % of DMSO
Nc1ncn([C@@H]2O[C@H](CO)[C@@H](O)[C@H]2O)c(=O)n1	113 % of DMSO
c1ccc(-c2ccc(CNc3nc(-c4ccccn4)nnc3-c3ccccc3)cc2)cc1	104 % of DMSO
CNCC(O)c1ccc(O)c(O)c1 (stereo not drawn)	97.3 % of DMSO
O=C(Nc1ccccc1)C12CC1C(=NO)c1ccccc1O2 (stereo not drawn)	109 % of DMSO
O=C1C(=Cc2cccnc2)C(=O)c2ccccc21	88.5 % of DMSO

Block 3 — concentration: 1 µM
SMILES: O=C(Nc1cccnn1)N1CC(C/C=C/c2cncc(Oc3ccc(C(F)(F)F)cn3)n2)C1
target	test	remaining binding
Receptor-type tyrosine-protein kinase FLT3 (FLT3, Homo sapiens, UniProt P36888, D835V)	cell-free assay, competition with immobilised ligand	77%
Serine/threonine-protein kinase TNNI3K (TNNI3K, Homo sapiens, UniProt Q59H18)	cell-free assay, competition with immobilised ligand	100%
Dual specificity protein kinase CLK2 (CLK2, Homo sapiens, UniProt P49760)	cell-free assay, competition with immobilised ligand	100%
Calcium/calmodulin-dependent protein kinase type IV (CAMK4, Homo sapiens, UniProt Q16566)	cell-free assay, competition with immobilised ligand	100%
MAP kinase-activated protein kinase 5 (MAPKAPK5, Homo sapiens, UniProt Q8IW41)	cell-free assay, competition with immobilised ligand	76%
Phosphatidylinositol 5-phosphate 4-kinase type-2 beta (PIP4K2B, Homo sapiens, UniProt P78356)	cell-free assay, competition with immobilised ligand	96%
Ephrin type-B receptor 2 (EPHB2, Homo sapiens, UniProt P29323)	cell-free assay, competition with immobilised ligand	100%
Receptor-type tyrosine-protein kinase FLT3 (FLT3, Homo sapiens, UniProt P36888, K663Q)	cell-free assay, competition with immobilised ligand	100%
Interleukin-1 receptor-associated kinase 3 (IRAK3, Homo sapiens, UniProt Q9Y616)	cell-free assay, competition with immobilised ligand	100%
Serine/threonine-protein kinase 32A (STK32A, Homo sapiens, UniProt Q8WU08)	cell-free assay, competition with immobilised ligand	100%
Death-associated protein kinase 3 (DAPK3, Homo sapiens, UniProt O43293)	cell-free assay, competition with immobilised ligand	100%
Calcium/calmodulin-dependent protein kinase type II subunit beta (CAMK2B, Homo sapiens, UniProt Q13554)	cell-free assay, competition with immobilised ligand	100%
Ribosomal protein S6 kinase alpha-3, C-terminal kinase domain (RPS6KA3, Homo sapiens, UniProt P51812)	cell-free assay, competition with immobilised ligand	89%
Serine/threonine-protein kinase SIK1 (SIK1, Homo sapiens, UniProt P57059)	competition binding	100%
Vascular endothelial growth factor receptor 1 (FLT1, Homo sapiens, UniProt P17948)	cell-free assay, competition with immobilised ligand	100%
Epidermal growth factor receptor (EGFR, Homo sapiens, UniProt P00533, L858R/T790M)	cell-free assay, competition with immobilised ligand	82%
Interferon-induced, double-stranded RNA-activated protein kinase (EIF2AK2, Homo sapiens, UniProt P19525)	cell-free assay, competition with immobilised ligand	100%
STE20/SPS1-related proline-alanine-rich protein kinase (STK39, Homo sapiens, UniProt Q9UEW8)	cell-free assay, competition with immobilised ligand	77%
Leukocyte tyrosine kinase receptor (LTK, Homo sapiens, UniProt P29376)	cell-free assay, competition with immobilised ligand	100%
Tyrosine-protein kinase JAK3, JH1 (JAK3, Homo sapiens, UniProt P52333)	cell-free assay, competition with immobilised ligand	100%

Block 4 — organism: Plasmodium berghei; cells: Huh-7; strain: liver stage; concentration: 10 µM; time: 24 h; relative to: control
SMILES	parasite load
CN(C)CCOC(c1ccccc1)c1ccccc1	88.5%
C(=C\N1CCN(C(c2ccccc2)c2ccccc2)CC1)/Cc1ccccc1	69.5%
CN(C)CCCN1c2ccccc2CCc2ccc(Cl)cc21	31.4%
C[C@H]1O[C@@H](O[C@H]2[C@@H](O)C[C@H](O[C@H]3[C@@H](O)C[C@H](O[C@H]4CC[C@@]5(C)[C@H](CC[C@@H]6[C@@H]5C[C@@H](O)[C@]5(C)[C@@H](C7=CC(=O)OC7)CC[C@]65O)C4)O[C@@H]3C)O[C@@H]2C)C[C@H](O)[C@@H]1O	22.7%
CC(=O)Nc1nnc(S(N)(=O)=O)s1	94.8%
CNC(=O)Oc1ccc2c(c1)[C@]1(C)CCN(C)[C@@H]1N2C	86.2%
CN1CCN(C2=Nc3cc(Cl)ccc3Nc3ccccc32)CC1	63.6%
CN1CCN2c3ccccc3Cc3ccccc3C2C1 (stereo not drawn)	98.4%
CCC[C@@H]1C[C@@H](C(=O)N[C@@H]([C@H]2O[C@H](SC)[C@H](O)[C@@H](O)[C@H]2O)[C@H](C)Cl)N(C)C1	108%
CC[C@H]1CN2CCc3cc(OC)c(OC)cc3[C@@H]2C[C@@H]1C[C@H]1NCCc2cc(OC)c(OC)cc21	3.34%
O=C(CCCN1CCC(O)(c2ccc(Cl)cc2)CC1)c1ccc(F)cc1	68.6%
CC/C(=C(/CC)c1ccc(O)cc1)c1ccc(O)cc1	83.1%
CN(C)C(=N)NC(=N)N	81.5%

For quick reference, copied from above (block 4):
SMILES	parasite load
C[C@H]1O[C@@H](O[C@H]2[C@@H](O)C[C@H](O[C@H]3[C@@H](O)C[C@H](O[C@H]4CC[C@@]5(C)[C@H](CC[C@@H]6[C@@H]5C[C@@H](O)[C@]5(C)[C@@H](C7=CC(=O)OC7)CC[C@]65O)C4)O[C@@H]3C)O[C@@H]2C)C[C@H](O)[C@@H]1O	22.7%
CC(=O)Nc1nnc(S(N)(=O)=O)s1	94.8%
CNC(=O)Oc1ccc2c(c1)[C@]1(C)CCN(C)[C@@H]1N2C	86.2%
CN1CCN(C2=Nc3cc(Cl)ccc3Nc3ccccc32)CC1	63.6%
CN1CCN2c3ccccc3Cc3ccccc3C2C1 (stereo not drawn)	98.4%
CCC[C@@H]1C[C@@H](C(=O)N[C@@H]([C@H]2O[C@H](SC)[C@H](O)[C@@H](O)[C@H]2O)[C@H](C)Cl)N(C)C1	108%
